# Experimental data from different studies.
# Each line is one published result; not all experiments were run side by side. Several values in a cell are separate wells, animals, samples, runs or records. ± marks the error that the study gave.
Compound,target,test,system,conditions,IC50
COc1ccc2cc3[n+](cc2c1OC)CCc1cc2c(cc1-3)OCO2,class I HDAC,enzyme activity,bovine heart lysate,,20 µM
C=CC(=O)OCC,cysteine peptide Ac-RFAACAA-COOH,"peptide depletion, DPRA RapidFire-MS/MS",,"24 h, pH 7.5, room temperature, together with: 5.0 µM cysteine peptide",inactive
CS(=O)(=O)c1ccc(Oc2cc(F)cc(C#N)c2)c2c1[C@H](O)C(F)(F)C2,HIF-2 (human),"reporter gene, inhibitor","786-O, HRE luciferase reporter",24 h,0.042 µM
Fc1ccccc1SSc1ccccc1F,tubulin,,,,2.4 ± 0.3 µM
C=C(C)[C@@H]1CC=C(C=O)CC1,cysteine peptide Ac-RFAACAA-COOH,"peptide depletion, DPRA RapidFire-MS/MS",,"24 h, pH 7.5, room temperature, together with: 5.0 µM cysteine peptide",116 µM
Brc1cccc(SSc2cccc(Br)c2)c1,tubulin,,,,4 ± 0.5 µM
O=C(CCCCCCC(=O)Nc1ccccc1)NO,"histone deacetylase, mouse",inhibitor,GL261 cell nuclear extract,,0.8 µM
CC(C)/C=C/c1c(O)cc(/C=C/c2ccccc2)cc1O,"iNOS, mouse","NO production, inhibitor",RAW264.7,together with: LPS,> 25 µg/mL
O=C(Nc1ccc(Cl)cc1)C1CCN(Cc2ccccc2)C1 (stereo not drawn),sodium channel Nav1.4 (frog),"tonic block of sodium current, vaseline-gap voltage clamp",Pelophylax lessonae semitendinosus fibres,10 °C,35.7 ± 5.6 µM
O=C1C[C@@H](c2ccc(O)c(O)c2)Oc2cc(O)cc(O)c21,human intestinal sulfotransferases,"DHEA sulfation, radiometric",human intestine cytosol,together with: DHEA 2 µM,66.1 ± 20.2 µM
O=C(Nc1ccccc1)C1CCN(Cc2ccccc2)C1 (stereo not drawn),sodium channel Nav1.4 (frog),"tonic block of sodium current, vaseline-gap voltage clamp",Pelophylax lessonae semitendinosus fibres,10 °C,30.2 ± 5.3 µM
CC[N+](CC)(CC)CC,acetylcholine receptor channel,"endplate current, channel blocker, voltage clamp","Lithobates pipiens, frog sartorius muscle",membrane potential -150 mV,170 µM
Cc1cccc(C)c1NC(=O)C1CCCN1Cc1ccccc1 (racemic),sodium channel Nav1.4 (frog),"tonic block of sodium current, vaseline-gap voltage clamp",Pelophylax lessonae semitendinosus fibres,10 °C,82.2 ± 4.3 µM
O=c1c(O)c(-c2ccc(O)c(O)c2)oc2cc(O)cc(O)c12,class I HDAC,enzyme activity,bovine heart lysate,,36 µM
O=c1c(O)c(-c2ccc(O)c(O)c2)oc2cc(O)cc(O)c12,CYP3A,inhibitor,pooled human liver microsomes,no preincubation,10.4 µM
CC(C)(O)C(O)Cc1c(O)cc(/C=C/c2ccccc2)cc1O (stereo not drawn),"iNOS, mouse","NO production, inhibitor",RAW264.7,together with: LPS,> 25 µg/mL
CC(C=O)Cc1ccc(C(C)(C)C)cc1 (stereo not drawn),cysteine peptide Ac-RFAACAA-COOH,"peptide depletion, DPRA RapidFire-MS/MS",,"24 h, pH 7.5, room temperature, together with: 5.0 µM cysteine peptide",35.8 µM
O=c1cc(-c2ccc(O)c(O)c2)oc2cc(O)cc(O)c12,class I HDAC,enzyme activity,bovine heart lysate,,17 µM
CC(C)(O)C(O)Cc1c(O)cc(/C=C/c2ccc(O)cc2)cc1O (stereo not drawn),"iNOS, mouse","NO production, inhibitor",RAW264.7,together with: LPS,> 25 µg/mL
[Ca+2],"rod cGMP-gated channel, Ambystoma tigrinum","ion current, inside-out patch clamp",,"after EDTA/EGTA, -40 mV, together with: calmodulin 200 nM, cGMP 20 µM",0.632 µM and 0.679 µM
C=C(C)C(=O)OCC(C)O (stereo not drawn),cysteine peptide Ac-RFAACAA-COOH,"peptide depletion, DPRA RapidFire-MS/MS",,"24 h, pH 7.5, room temperature, together with: 5.0 µM cysteine peptide",inactive
Clc1ccc(SSc2ccc(Cl)cc2)cc1,tubulin,,,,4.6 ± 0.7 µM
c1ccc2c(NCCCn3ccnc3)ncnc2c1,Fe-SOD (Trypanosoma cruzi),inhibitor,Trypanosoma cruzi,epimastigotes,66 µM
Fc1cccc(SSc2cccc(F)c2)c1,tubulin,,,,4.8 ± 0.1 µM
Cc1cccc(C)c1NC(=O)C1CCCCN1Cc1ccccc1 (stereo not drawn),sodium channel Nav1.4 (frog),"tonic block of sodium current, vaseline-gap voltage clamp",Pelophylax lessonae semitendinosus fibres,10 °C,146 ± 14.9 µM
O=c1cc(-c2ccccc2)oc2cc(O)c(O)c(O)c12,class I HDAC,enzyme activity,bovine heart lysate,,45 µM
CCCCCCCC(=O)O,cysteine peptide Ac-RFAACAA-COOH,"peptide depletion, DPRA RapidFire-MS/MS",,"24 h, pH 7.5, room temperature, together with: 5.0 µM cysteine peptide",331 µM
NC[C@@H]1O[C@H](O[C@H]2[C@@H](O)[C@H](O[C@@H]3[C@@H](O)[C@H](N)C[C@H](N)[C@H]3O[C@H]3O[C@H](CO)[C@@H](O)[C@H](O)[C@H]3N)O[C@@H]2CO)[C@H](N)[C@@H](O)[C@@H]1O,HIV-1 nucleocapsid protein-SL3 RNA complex,"complex dissociation, ESI-FTMS",,preformed complex ~3.5 µM,311 ± 13.3 µM
O=c1c(O)c(-c2ccc(O)cc2O)oc2cc(O)cc(O)c12,class I HDAC,enzyme activity,bovine heart lysate,,45 µM
O=c1[nH]sc2ccccc12,cysteine peptide Ac-RFAACAA-COOH,"peptide depletion, DPRA RapidFire-MS/MS",,"24 h, pH 7.5, room temperature, together with: 5.0 µM cysteine peptide",0.865 µM
O=C(O)/C=C/c1ccc(O)c(O)c1,class I HDAC,enzyme activity,bovine heart lysate,,81 µM
Clc1cccc(SSc2cccc(Cl)c2)c1,tubulin,,,,3.1 ± 0.4 µM
CCCCCCCCCCCCCCCC(=O)Cl,cysteine peptide Ac-RFAACAA-COOH,"peptide depletion, DPRA RapidFire-MS/MS",,"24 h, pH 7.5, room temperature, together with: 5.0 µM cysteine peptide",inactive
CC1=C(/C=C/C(C)=C/C=C/C(C)=C/C=O)C(C)(C)CCC1,rod CNG channel (Ambystoma tigrinum),"ion current, inhibitor, inside-out patch clamp",,"pH 7.2, room temperature, together with: cGMP 2 mM",0.25 µM
Cc1c(C)c(NC(=O)C2CCN(Cc3ccccc3)C2)c(C)c(C)c1Cl (stereo not drawn),sodium channel Nav1.4 (frog),"tonic block of sodium current, vaseline-gap voltage clamp",Pelophylax lessonae semitendinosus fibres,10 °C,35.8 ± 4.1 µM
CCO/C=C1\N=C(c2ccccc2)OC1=O,cysteine peptide Ac-RFAACAA-COOH,"peptide depletion, DPRA RapidFire-MS/MS",,"24 h, pH 7.5, room temperature, together with: 5.0 µM cysteine peptide",9.09 µM

# For quick reference, copied from above:
Compound,target,test,system,conditions,IC50
C=C(C)[C@@H]1CC=C(C=O)CC1,cysteine peptide Ac-RFAACAA-COOH,"peptide depletion, DPRA RapidFire-MS/MS",,"24 h, pH 7.5, room temperature, together with: 5.0 µM cysteine peptide",116 µM
Brc1cccc(SSc2cccc(Br)c2)c1,tubulin,,,,4 ± 0.5 µM
